Results gathered from unrelated publications.
Parts stem from different laboratories: compare values within a part only.

Study 1
Target: Sal-like protein 4, full length isoform A (SALL4, Homo sapiens, UniProt Q9UJQ4, residues 1-1053)
Chain of UniProt Q9UJQ4 (whole entry, looked up): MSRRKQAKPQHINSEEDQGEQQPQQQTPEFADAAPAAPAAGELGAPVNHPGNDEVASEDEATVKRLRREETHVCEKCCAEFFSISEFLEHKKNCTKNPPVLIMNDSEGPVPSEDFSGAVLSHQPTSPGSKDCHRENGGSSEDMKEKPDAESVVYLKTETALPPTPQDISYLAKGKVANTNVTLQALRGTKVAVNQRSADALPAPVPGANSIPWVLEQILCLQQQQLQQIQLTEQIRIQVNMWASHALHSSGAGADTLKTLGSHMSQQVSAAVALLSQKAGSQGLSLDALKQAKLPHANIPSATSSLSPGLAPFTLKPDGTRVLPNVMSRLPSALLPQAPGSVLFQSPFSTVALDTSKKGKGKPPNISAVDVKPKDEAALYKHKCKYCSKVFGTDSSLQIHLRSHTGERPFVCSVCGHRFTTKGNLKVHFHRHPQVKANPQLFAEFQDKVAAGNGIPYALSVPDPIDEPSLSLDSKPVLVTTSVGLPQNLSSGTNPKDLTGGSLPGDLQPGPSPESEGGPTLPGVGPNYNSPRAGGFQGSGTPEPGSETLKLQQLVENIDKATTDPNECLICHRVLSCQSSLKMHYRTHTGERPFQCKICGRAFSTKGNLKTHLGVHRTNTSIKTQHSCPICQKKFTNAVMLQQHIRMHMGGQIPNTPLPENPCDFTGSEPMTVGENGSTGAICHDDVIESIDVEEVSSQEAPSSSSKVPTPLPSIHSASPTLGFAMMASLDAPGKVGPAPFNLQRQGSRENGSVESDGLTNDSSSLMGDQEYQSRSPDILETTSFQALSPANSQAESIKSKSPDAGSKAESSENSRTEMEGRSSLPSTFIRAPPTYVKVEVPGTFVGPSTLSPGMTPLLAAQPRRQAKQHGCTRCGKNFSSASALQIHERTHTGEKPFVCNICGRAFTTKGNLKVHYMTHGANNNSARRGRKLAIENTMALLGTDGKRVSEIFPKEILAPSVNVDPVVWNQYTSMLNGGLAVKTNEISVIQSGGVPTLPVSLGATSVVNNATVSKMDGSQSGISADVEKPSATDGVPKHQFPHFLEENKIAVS
Method: universal PBM
Form: double-stranded DNA, one strand shown
Sample: in vitro
Concentration: 600 nM
Notes: 8-mer, flanks averaged, mean of replicates
Reading: higher = stronger binding
Quantity: E-score
CATCGTTC: -0.146
CATGAGCG: -0.181
GCCTAATA: 0.114
TAGCCTGA: -0.0754
CTAGACTC: -0.124
CAAGCCCC: -0.341
ATATGCCA: 0.126
ACCGACGA: -0.13
CTGATGAC: -0.12
CCAGCCTC: -0.253
CTCTGTTC: 0.042
GCTTACCA: 0.00412
AGATTCGG: -0.007
TACACACA: 0.198
AATTGGTA: 0.152
ACACGACG: -0.0144
ATTTGTCG: 0.17
CAACCGTG: -0.185
CACCAGCC: -0.315
CGCCTAGA: -0.0859
ACAGTGAT: 0.0718
GGAGCGTA: -0.0325
CAGGGTTC: -0.291
CGACCAAC: -0.132

Study 2
Target: RNA binding protein fox-1 homolog 2, RRM domain, GST-SBP tag (RBFOX2, Homo sapiens, UniProt O43251-10, residues 100-194)
Method: RNA Bind-n-Seq
Form: RNA
Sample: in vitro
Concentration: 365 nM
Notes: natural RNA segment, single round, ends assumed
Relative to: no-protein control
Reading: higher = stronger binding
Quantity: RBNS enrichment (R)
Shared flanks, not repeated: GGGAGUUCUACAGUCCGACGAUC … UGGAAUUCUCGGGUGCCAA
Target sequence (chain): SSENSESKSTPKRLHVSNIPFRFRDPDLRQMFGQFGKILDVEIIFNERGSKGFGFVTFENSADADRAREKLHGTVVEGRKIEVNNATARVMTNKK
ACAUGCAAACAGCCUACUUCUUCAUGAACAAUUCCAUUUUAUUGACUGAACUUUUCUCAUAUUUUCACAUUUCUCAGUCCUGAAGAAUAAGGAAAACAAAGCGACGCCUA: 0.409
CUCCAUCCGAGUUUCCUCCUUCGUCCCCUGAUGAAGAGCCCCCUGAGAAUUGACAAGGAUGUAGAACAAGUGUUCCUUUCCAUCACACCUGCCAAGGGCAAAGCUACCUG: 0.371
UCACCCAGCACCCAGCUUAACCCUGCCACCCCACACUCCUGGGAGCACUGGGCUGAGGGGGUCUCAGCUGGUCUGGAGUCCAGACCUCGCCAUCCCCUGCCCACCAUUGC: 0.339
GGUGCGAGGGAAGCAAUUGAAAAGGAACUUGCCCUGAGCACUCCUGGUGCAGGUCUCCACCUGCACAUUGGGUGGGGCUCCUGGGAGGGAGACUCAGCCUUCCUCCUCAU: 0.326
UCUGGGCUGUGAAGGCAGUUGCCACUGUUAUGCAGUGGCUGCUUUUGAGGGACGCACUGUGAAGAAUGAGAAGGGAAAAGCAAGAUUAUCCUUGUGAAAUUCUGCUGAUU: 0.273
GUCUAGGACAACAGUGCCCGGCCUUGCACCUACUUGCCAGUUCUGCUUUGCCCAGCCUUGCUUUGGACCAGCUCUGCUACGUCUCCAGGGAAACCAAGCUUGGGCCUUGC: 0.458
CACCUUGAUGAUAAUGGACUGAACCUCUGAACCUGCAAGCCAGCCCCAAUUAAAUGUUGUCCUUAUAAGAGUUGCCUUGGUCACGGUGUCUGUUCACAGCAGUAAAAACU: 0.406
ACAGUAGCUGAAUUGUGUUAUCAAAACAACUCUGACUUCUGCCCAGAGCACAUUAAAACCAAAGUCUGAUUGUUAAGCCUUUGACUCGGAUGUCUGUAGCAGUUCUAUGA: 0.519

Study 3
Target: RING finger protein unkempt homolog, zinc fingers 1-6, GST-SBP tag (UNK, Homo sapiens, UniProt Q9C0B0, residues 30-357)
Chain of UniProt Q9C0B0 (30-357, looked up): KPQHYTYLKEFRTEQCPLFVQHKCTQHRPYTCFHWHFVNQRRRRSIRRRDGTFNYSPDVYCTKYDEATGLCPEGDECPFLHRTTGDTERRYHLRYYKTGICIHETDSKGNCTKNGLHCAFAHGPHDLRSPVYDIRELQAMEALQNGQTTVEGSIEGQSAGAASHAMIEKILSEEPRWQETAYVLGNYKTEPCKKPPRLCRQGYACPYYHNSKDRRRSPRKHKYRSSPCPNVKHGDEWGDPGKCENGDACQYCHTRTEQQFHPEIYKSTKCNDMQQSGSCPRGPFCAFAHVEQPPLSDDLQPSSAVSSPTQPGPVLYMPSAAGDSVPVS
Method: RNA Bind-n-Seq
Form: RNA
Sample: in vitro
Concentration: not given
Notes: RNA with constant flanks, human and mouse sites, ends assumed
Relative to: input RNA pool
Reading: higher = stronger binding
Quantity: bound/input enrichment
Shared flanks, not repeated: GGGAGUUCUACAGUCCGACGAUC … CAACAGAGGAUUGAGCAUCA
UAUAUCACGCUGCCCCUGGCCUUGCUCUUCCUCAUCGUUCGAUACUUCUUUGAGCUGUACGUGGCUACACCACUGGCUGCCCUCUUGAACAUAAAGGAGAAAACUCGGCUGCGGGCACCU: 0.11 ratio
CCCAUCAUUGAGUCUUCCUCAAAUAUCAAAUUUGGAUGUUUUCAAUGGUACUAUCCUGAAUUAGCUUUCCAGUUCAAAGAUGCAGGGCUAAGUAUCUUCAACAAUACAUGGAGUAACAUU: 0.31 ratio
GCUGAUUUUGAGAAGGUUUUCUCUAUUGGACCAGUAUUCAGAGCGGAAGACUCUAAUACCCAUAGACAUCUAACUGAGUUUGUUGGUUUGGACAUUGAAAUGGCUUUUAAUUACCAUUAC: 2.51 ratio
UUCUCCGUACUUUUCUCUGAAAGGAAUCUUGUCUUGUUAAACCCUAAAGAGAGUGUCCUUAAUAGCAAUCAGCACUUGUAAGCUUAUAUACUGGUGCAUUUGGUUUUCUGUUGGGUGAAU: 0.471 ratio
UGUUGUAAAUCAGACUCCAGCAAUUUUUGUUGUAUGAUUUUGGUUUUUGUAAAGUGUAAUUGUCCUUGUACAAAGUGCUCAUAUUUAAUUAUGAACUGCUUUAAAAUCACUAUCAGUGAA: 0.102 ratio
AUUUUAUUGGUGCCUUCUUUCAUCAUGCCUUUUAAAUCAAAGGGAUAUUGGUACAUGCUUUUAGAAGAAUUGUGUCAGUAUUACCGAAUUUUUGUUCCUAUACCAGUUUGGUUUCGGUAC: 0.398 ratio
GCGGAGAAGGACUCCCUGGACCCCUCCUUCACGCACGCCCUGCGCCUGGUGAACCAAGAAAUAGAAAAGUUUCAAAAAGGAGAAGGCAAGGAUGAAGAAAAGUACAUCGAUGUGGUGAUU: 0.219 ratio
AAUACAGAAUUUGGAGCAUUUGUAGGACACAGAGAUAGCAUGGAUUUACAGAGGUUUAAAGAAACAUCAAACAAGAUAAAAAUACUAUCCAAUAACAAUACUUCUGAAAACACUUUGAAA: 0.367 ratio

Study 4
Target: Prothrombin, mature alpha-thrombin (F2, Homo sapiens, UniProt P00734)
Method: aptamer microarray, sandwich
Form: DNA with 2'F-ANA
Sample: in vitro
Concentration: 200 nM
Notes: whole 15-mer aptamer, many near background
With: Cy3 exosite-II aptamer, 400 nM
Reading: higher = stronger binding
Quantity: mean fluorescence intensity
Oligonucleotide: GGTTGGTGTGGTTGG
2'F-ANA at 2 4 6 8 9 12 13 15: 301 a.u.
2'F-ANA at 1 2 4 8 9 11 12 14 15: 67.4 a.u.
2'F-ANA at 4 6 7 8 11 12 13 15: 365 a.u.
2'F-ANA at 1 5 7 11 13 14: 44.7 a.u.
2'F-ANA at 2 3 4 5 7 8 9 12 14 15: 56.1 a.u.
2'F-ANA at 2 4 6 7 9 10 11 13: 64.8 a.u.
2'F-ANA at 2 3 4 6 7 10 11 13 15: 181 a.u.
2'F-ANA at 1 2 4 5 6 7 10 14: 46.6 a.u.
2'F-ANA at 2 3 7 8 9 10 12 13: 372 a.u.
2'F-ANA at 2 4 5 6 10 11 12 13 14: 47 a.u.
2'F-ANA at 2 3 4 10 14 15: 185 a.u.
2'F-ANA at 3 6 10 11 12 14 15: 348 a.u.
2'F-ANA at 1 2 3 5 7 8 11 14: 47.2 a.u.
2'F-ANA at 1 2 3 4 7 8 10 12 14 15: 51.5 a.u.
2'F-ANA at 1 3 4 6 8 15: 251 a.u.
2'F-ANA at 1 3 4 5 6 9 10 11 12 14 15: 61.9 a.u.
2'F-ANA at 3 5 6 8 11 12: 204 a.u.

Repeated from above (study 1):
CAAGCCCC: -0.341
TACACACA: 0.198
ACCGACGA: -0.13
GCCTAATA: 0.114
GGAGCGTA: -0.0325
AGATTCGG: -0.007
ACAGTGAT: 0.0718
CAGGGTTC: -0.291
